Earlier results, collected from citations in different studies.
± gives the spread as reported.

| Structure (SMILES) | tested on | test | test system | setting | quantity | result |
| --- | --- | --- | --- | --- | --- | --- |
| Cc1cc([C@H](C)Nc2ccccc2)c2oc(N3CCOCC3)cc(=O)c2c1 | ATR | kinase activity, inhibitor |  | together with: 10 µM ATP | IC50 | > 100 µM |
| Cc1ccc(C(=O)Nc2ccc(S(=O)(=O)O)c3cc(S(=O)(=O)O)cc(S(=O)(=O)O)c23)cc1NC(=O)c1cccc(NC(=O)Nc2cccc(C(=O)Nc3cc(C(=O)Nc4ccc(S(=O)(=O)O)c5cc(S(=O)(=O)O)cc(S(=O)(=O)O)c45)ccc3C)c2)c1 | Trypanosoma congolense |  | IL3000 |  | IC50 | 7.17 ± 0.87 µM |
| CC(=O)O[C@H]1Cc2ccccc2N(C(N)=O)c2ccccc21 |  | afterdischarge threshold | mouse kindling model | i.p., 300 mg/kg, 15 min before stimulation | focal seizure threshold increase | > 1320% |
| O=C1c2cccc3c2[C@H](CCC3)CN1[C@@H]1CN2CCC1CC2 |  |  | healthy volunteers, plasma | oral, dose not given, netupitant-palonosetron combination, together with: oral contraceptives | Tmax | 3.92 h |
| Cc1cc(C(C)Nc2ccccc2)c2oc(-c3ccncc3)cc(=O)c2c1 (stereo not shown) | ATM | kinase activity, inhibitor |  | together with: 10 µM ATP | IC50 | > 100 µM |
| CC(=O)c1cccc(N[C@H]2[C@H](N)[C@@](NC(=O)N(C)C)([C@H](C)O)[C@@](C)(O)[C@@]2(O)COC(=O)c2c(C)cccc2O)c1 | HCT-15 (colon cancer) | cell growth |  | NCI screen data | GI50 | 0.03 µM |
| O=P(O)(O)OC[C@H]1O[C@H](OP(=O)(O)OP(=O)(O)O)[C@H](O)[C@@H]1O | HGPRT Trypanosoma cruzi | substrate, refers to: GMP |  | 20 to 215 µM | kcat | 32 s⁻¹ |
| CCC(C)c1c(O)ccc2c1CC[C@@H]1[C@@H]2CC[C@]2(C)C(=O)CC[C@@H]12 (stereo partly shown) | HT-22 | cell protection |  | together with: glutamate 10 mM | EC50 | 0.244 µM |
| Nc1nc2c(nc(Sc3ccc(Cl)cc3)n2C2O[C@@H]3COP(=O)(O)O[C@H]3[C@H]2O)c(=O)[nH]1 (stereo in doubt) | PDE4D | cyclic nucleotide hydrolysis, substrate or inhibitor, isothermal titration calorimetry |  |  | Km or Ki | 53.4 µM |
| C[C@]12CC=C3c4ccc(O)cc4CC[C@H]3[C@@H]1CC[C@@H]2O | HT-22 | cell protection |  | together with: iodoacetic acid 20 µM | EC50 | 0.253 µM |
| Nc1ncnc2c1nc(Br)n2[C@@H]1O[C@@H]2COP(=O)(O)O[C@H]2[C@H]1O | PDE2A | cyclic nucleotide hydrolysis, substrate or inhibitor, isothermal titration calorimetry |  |  | Km or Ki | 38.7 µM |
| Oc1cccc(-c2nc(N3CCOCC3)c3oc4ncccc4c3n2)c1 | ATR | kinase activity, inhibitor |  | together with: 10 µM ATP | IC50 | 0.85 µM |
| N=C(N)c1ccc(OCCCCCOc2ccc(C(=N)N)cc2)cc1 | Trypanosoma evansi | cell growth | Tansui |  | IC50 | 0.00097 ± 0.00019 µM |
| C[C@]12CC[C@@H]3c4ccc(O)cc4CC[C@H]3[C@@H]1CCC2=O | HT-22 | cell protection |  | together with: iodoacetic acid 20 µM | EC50 | 2.09 µM |
| CCCc1nn(C)c2c(=O)[nH]c(-c3cc(S(=O)(=O)N4CCN(C)CC4)ccc3OCC)nc12 |  | ambulatory blood pressure monitoring, refers to: MAP | healthy and hypertensive humans | 100 mg, evening dosing | blood pressure reduction | -5.3 mmHg |
| CC12CCC3c4ccc(O)cc4CCC3C1CCC2O (stereo not shown) | HT-22 | cell protection |  | together with: glutamate 20 mM | EC50 | 16.2 µM |
| C[C@]1(c2nc3c(C(N)=O)cccc3[nH]2)CCCN1 |  |  | human, metastatic TNBC | 300 mg twice daily, days 1-14, together with: cisplatin 75 mg/m^2 | median progression-free survival | 5.7 months |
| C[C@]12CC[C@@H]3c4ccc(O)cc4CC[C@H]3[C@@H]1CC1(CCCC1)C2=O | HT-22 | cell protection |  | together with: glutamate 10 mM | EC50 | 9.02 µM |
| Cc1ccc([N+](=O)[O-])cc1S(=O)(=O)N(C)/N=C/c1cnc2ccc(Br)cn12 | phosphatidylinositol 4-phosphate 5-kinase type I beta | enzyme activity, inhibitor |  | together with: 10 µM ATP | IC50 | > 100 µM |
